Published values pooled from the literature.
Protocols differ between the studies behind these lines. Values joined by “and” are separate records of one study, mostly repeats; a detail may differ. Numbers after ± are the reported error.
Cell line: K562

CCCCn1cc(C(=O)O)c(=O)c2cc(F)c3c(nnn3-c3ccccc3OC)c21  IC50 (cell growth, SRB; 72 h): 114 ± 10.2 µg/mL
CC(C)=CCc1cc(-c2coc3cc(O)c(CC=C(C)C)c(O)c3c2=O)ccc1O  viability (cell growth or viability, MTT; 6.25 µg/mL): 98.5%
CC(C)=CCC[C@@H](C)[C@@H]1CC[C@]2(C)C3=C(CC[C@@]12C)[C@@]1(C)CC[C@H](OC(=O)c2ccccc2)C(C)(C)[C@@H]1CC3  inhibition (cell growth or viability, SRB; 50 µM): 33.1%
CC(C)=CCc1c2c(c(O)c3c(=O)c(-c4ccc(O)cc4)coc13)CC(C(C)(C)O)O2 (stereo not drawn)  viability (cell growth or viability, MTT; 50 µg/mL): 11.6%
Cc1[nH][n+]([Pt-2]([Cl])([n+]2[nH]c(C)c(CSCc3ccccc3)c2C)[n+]2[nH]c(C)c(CSCc3ccccc3)c2C)c(C)c1CSCc1ccccc1.Cl  IC50 (cytotoxicity, 7-AAD flow cytometry; 24 h): 0.3 ± 0.03 µM
CCCCn1cc(C(=O)O)c(=O)c2cc(F)c3c(nnn3-c3cccc(OC)c3)c21  IC50 (cell growth or viability, SRB): 70.4 µM
Cc1[nH][n+]([Pd-2]([Cl])([Cl])[n+]2[nH]c(C)c(CSCc3ccccc3)c2C)c(C)c1CSCc1ccccc1  IC50 (cytotoxicity, 7-AAD flow cytometry; 24 h): 0.52 ± 0.04 µM
C[C@H](CCC1OC1(C)C)[C@@H]1CC[C@]2(C)C3=C(CC[C@@]12C)[C@@]1(C)CC[C@H](O)C(C)(C)[C@@H]1CC3 (stereo partly drawn)  inhibition (cell growth or viability, SRB; 50 µM): 34.1%
CCCCn1cc(C(=O)O)c(=O)c2cc(F)c(Nc3cc(OC)c(OC)c(OC)c3)c([N+](=O)[O-])c21  IC50 (cell growth, SRB; 72 h): 22.5 ± 0.57 µg/mL
C[C@H](CCC=O)[C@@H]1CC[C@]2(C)C3=C(CC[C@@]12C)[C@@]1(C)CC[C@H](O)C(C)(C)[C@@H]1CC3  inhibition (cell growth or viability, SRB; 50 µM): 100%
COc1ccc(-c2coc3c(CC=C(C)C)c(O)c(CC=C(C)C)c(O)c3c2=O)cc1O  viability (cell growth or viability, MTT; 6.25 µg/mL): 88%
CCCCn1cc(C(=O)O)c(=O)c2cc(F)c(Nc3ccccc3OC)c([N+](=O)[O-])c21  IC50 (cell growth or viability, SRB): 35.6 µM and < 50 µM
